Published values pooled from the literature.
Each line is one published result; not all experiments were run side by side. pIC50: −log10 of the molar value.
ACHE: Acetylcholinesterase (ACHE, Homo sapiens, UniProt P22303)
Sequence of UniProt P22303 (whole entry, looked up): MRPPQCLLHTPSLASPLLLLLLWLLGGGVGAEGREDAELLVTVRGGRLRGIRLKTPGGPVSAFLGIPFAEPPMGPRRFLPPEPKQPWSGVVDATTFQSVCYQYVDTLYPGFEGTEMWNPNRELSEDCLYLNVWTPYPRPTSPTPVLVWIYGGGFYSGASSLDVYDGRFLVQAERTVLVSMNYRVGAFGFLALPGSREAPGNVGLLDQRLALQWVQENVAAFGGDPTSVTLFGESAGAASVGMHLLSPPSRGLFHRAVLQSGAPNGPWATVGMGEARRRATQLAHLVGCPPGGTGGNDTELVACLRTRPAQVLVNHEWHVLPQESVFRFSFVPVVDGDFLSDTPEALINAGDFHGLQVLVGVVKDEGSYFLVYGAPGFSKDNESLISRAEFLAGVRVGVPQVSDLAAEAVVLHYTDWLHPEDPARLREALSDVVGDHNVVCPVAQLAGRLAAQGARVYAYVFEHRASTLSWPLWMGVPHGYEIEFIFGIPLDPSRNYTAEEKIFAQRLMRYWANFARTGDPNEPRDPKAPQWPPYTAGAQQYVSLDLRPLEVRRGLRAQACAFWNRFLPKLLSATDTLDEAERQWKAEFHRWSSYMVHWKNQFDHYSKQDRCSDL
BCHE: Cholinesterase (BCHE, Homo sapiens, UniProt P06276)
Sequence of UniProt P06276 (whole entry, looked up): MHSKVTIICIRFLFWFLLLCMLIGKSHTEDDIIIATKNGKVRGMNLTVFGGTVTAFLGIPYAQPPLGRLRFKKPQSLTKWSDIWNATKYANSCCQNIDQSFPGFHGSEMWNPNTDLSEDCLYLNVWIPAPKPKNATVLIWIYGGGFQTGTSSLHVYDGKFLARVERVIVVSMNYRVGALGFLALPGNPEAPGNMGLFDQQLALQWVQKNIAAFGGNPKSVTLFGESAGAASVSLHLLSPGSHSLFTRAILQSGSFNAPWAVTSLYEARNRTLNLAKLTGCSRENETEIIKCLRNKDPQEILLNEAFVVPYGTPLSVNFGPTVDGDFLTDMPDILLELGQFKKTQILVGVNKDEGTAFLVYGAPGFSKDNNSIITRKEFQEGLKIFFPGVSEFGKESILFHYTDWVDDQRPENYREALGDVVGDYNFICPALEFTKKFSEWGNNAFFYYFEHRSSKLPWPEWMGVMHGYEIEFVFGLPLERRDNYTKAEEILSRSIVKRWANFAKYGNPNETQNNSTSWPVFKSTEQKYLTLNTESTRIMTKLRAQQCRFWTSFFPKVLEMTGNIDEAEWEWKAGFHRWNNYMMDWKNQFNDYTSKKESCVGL
OPRD1: Delta-type opioid receptor (OPRD1, Homo sapiens, UniProt P41143)
Sequence of UniProt P41143 (whole entry, looked up): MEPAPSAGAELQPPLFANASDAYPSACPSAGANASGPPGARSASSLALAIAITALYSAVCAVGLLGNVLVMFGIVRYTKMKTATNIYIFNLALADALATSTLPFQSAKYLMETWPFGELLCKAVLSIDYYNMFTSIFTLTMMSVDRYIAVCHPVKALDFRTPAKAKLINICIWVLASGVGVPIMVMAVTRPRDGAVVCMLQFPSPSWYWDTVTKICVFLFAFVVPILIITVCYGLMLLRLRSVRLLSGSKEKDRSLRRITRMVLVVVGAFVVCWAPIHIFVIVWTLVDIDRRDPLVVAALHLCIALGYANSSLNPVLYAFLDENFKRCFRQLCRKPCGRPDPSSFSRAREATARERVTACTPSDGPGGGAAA
Sequence of UniProt Q91WC9 (whole entry, looked up): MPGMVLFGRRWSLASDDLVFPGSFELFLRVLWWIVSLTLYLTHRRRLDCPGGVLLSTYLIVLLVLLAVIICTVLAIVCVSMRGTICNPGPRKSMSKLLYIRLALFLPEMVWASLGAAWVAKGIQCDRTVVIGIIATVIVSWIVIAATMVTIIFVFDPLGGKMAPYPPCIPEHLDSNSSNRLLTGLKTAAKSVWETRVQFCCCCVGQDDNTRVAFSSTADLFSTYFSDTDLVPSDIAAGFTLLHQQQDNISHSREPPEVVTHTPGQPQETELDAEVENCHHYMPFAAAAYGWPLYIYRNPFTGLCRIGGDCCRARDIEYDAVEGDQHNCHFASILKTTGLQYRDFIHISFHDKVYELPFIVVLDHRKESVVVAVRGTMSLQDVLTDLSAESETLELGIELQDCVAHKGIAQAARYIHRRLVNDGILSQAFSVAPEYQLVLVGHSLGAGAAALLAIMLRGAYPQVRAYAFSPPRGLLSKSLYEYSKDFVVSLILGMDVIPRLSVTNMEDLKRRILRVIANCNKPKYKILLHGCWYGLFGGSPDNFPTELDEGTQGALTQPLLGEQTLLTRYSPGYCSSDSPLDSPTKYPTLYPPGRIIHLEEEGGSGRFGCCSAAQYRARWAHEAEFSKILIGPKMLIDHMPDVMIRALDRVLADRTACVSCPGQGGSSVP
Sequence of UniProt Q99558 (whole entry, looked up): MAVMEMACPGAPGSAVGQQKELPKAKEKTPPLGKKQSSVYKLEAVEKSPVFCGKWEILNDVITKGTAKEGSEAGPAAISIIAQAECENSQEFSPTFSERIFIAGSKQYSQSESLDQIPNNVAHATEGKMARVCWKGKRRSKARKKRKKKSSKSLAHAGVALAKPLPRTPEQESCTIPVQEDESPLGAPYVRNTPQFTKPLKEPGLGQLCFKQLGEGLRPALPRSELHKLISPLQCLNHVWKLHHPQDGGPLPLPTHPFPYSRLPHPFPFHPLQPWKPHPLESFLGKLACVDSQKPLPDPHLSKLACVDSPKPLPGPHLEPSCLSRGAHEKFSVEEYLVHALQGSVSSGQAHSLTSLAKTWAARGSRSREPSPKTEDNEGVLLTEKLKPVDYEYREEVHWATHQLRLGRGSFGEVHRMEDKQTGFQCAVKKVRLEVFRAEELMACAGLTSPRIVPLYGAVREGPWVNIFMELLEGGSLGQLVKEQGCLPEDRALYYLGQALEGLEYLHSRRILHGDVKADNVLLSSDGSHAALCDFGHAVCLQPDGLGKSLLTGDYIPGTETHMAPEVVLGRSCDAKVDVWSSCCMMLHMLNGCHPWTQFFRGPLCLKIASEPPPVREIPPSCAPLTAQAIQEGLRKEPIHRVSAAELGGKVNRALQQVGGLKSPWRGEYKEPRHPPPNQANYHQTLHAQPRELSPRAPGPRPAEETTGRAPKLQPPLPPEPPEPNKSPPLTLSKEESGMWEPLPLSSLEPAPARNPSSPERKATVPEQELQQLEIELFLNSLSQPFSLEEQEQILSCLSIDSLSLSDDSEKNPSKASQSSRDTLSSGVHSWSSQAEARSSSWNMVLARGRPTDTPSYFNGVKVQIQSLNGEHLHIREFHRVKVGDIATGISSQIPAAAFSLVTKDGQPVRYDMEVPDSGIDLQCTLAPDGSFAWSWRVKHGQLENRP
Sequence of UniProt P43088 (whole entry, looked up): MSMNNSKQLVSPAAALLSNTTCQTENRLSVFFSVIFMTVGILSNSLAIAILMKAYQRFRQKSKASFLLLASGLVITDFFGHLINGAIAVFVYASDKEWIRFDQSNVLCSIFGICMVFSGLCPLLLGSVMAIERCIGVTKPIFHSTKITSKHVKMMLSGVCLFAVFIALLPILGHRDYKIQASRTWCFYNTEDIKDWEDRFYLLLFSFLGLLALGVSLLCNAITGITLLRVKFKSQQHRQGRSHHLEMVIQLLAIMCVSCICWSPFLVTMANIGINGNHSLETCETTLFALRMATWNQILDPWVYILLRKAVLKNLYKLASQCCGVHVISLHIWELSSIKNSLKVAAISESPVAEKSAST
Sequence of UniProt Q8NEB9 (whole entry, looked up): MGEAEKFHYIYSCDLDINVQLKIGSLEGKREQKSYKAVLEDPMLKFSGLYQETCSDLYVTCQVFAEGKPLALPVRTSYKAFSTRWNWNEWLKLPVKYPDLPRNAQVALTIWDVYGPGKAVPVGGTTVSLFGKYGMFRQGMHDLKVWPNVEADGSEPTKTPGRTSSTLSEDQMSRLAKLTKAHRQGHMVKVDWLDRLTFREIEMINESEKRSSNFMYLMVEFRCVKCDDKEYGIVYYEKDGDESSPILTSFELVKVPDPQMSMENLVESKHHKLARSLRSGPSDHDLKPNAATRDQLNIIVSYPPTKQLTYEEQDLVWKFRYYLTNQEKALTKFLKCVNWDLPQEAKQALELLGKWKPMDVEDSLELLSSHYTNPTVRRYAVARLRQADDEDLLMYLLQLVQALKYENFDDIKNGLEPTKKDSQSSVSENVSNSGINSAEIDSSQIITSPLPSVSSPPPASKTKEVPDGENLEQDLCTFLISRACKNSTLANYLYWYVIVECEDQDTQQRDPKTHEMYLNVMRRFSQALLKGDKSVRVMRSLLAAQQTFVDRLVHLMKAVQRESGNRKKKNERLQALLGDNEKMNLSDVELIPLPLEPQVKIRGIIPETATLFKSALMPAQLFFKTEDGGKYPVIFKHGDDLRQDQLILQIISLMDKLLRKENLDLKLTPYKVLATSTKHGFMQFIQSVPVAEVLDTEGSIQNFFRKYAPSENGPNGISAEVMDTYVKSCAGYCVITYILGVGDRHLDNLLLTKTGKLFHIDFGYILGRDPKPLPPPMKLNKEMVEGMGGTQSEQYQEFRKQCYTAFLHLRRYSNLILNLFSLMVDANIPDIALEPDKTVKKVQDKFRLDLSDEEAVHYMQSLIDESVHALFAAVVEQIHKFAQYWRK
Sequence of UniProt Q09470 (whole entry, looked up): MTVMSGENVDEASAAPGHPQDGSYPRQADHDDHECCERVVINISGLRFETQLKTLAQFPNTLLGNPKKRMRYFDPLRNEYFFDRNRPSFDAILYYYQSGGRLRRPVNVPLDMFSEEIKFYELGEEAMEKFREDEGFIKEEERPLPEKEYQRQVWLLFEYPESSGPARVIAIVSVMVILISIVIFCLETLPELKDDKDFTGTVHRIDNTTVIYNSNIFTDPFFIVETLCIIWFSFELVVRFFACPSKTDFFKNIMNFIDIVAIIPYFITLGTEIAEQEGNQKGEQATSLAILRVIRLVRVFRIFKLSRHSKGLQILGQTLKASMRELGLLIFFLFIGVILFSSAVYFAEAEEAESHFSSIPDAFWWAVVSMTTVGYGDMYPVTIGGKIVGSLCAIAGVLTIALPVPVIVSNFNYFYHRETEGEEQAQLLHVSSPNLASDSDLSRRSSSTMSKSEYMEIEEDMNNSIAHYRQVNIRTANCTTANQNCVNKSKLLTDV

Structure (SMILES)	tested on	assay	test system	conditions	quantity	result
CN1C(=O)/C(=N\Nc2ncc(-c3cc4ccccc4oc3=O)s2)c2cc(Cl)ccc21	ACHE	enzyme activity, inhibitor, Ellman		50 nM	inhibition	32%
c1cncc([C@@H]2CCCN2)c1	5-hydroxytryptamine receptor 1A (HTR1A, Homo sapiens, UniProt P08908)	ligand displacement		50 µM	inhibition	-1.57%
[2H]c1c([2H])c([C@]2([2H])CCCN2C(=O)C(C)(C)Oc2ccc3cn[nH]c3c2)c([2H])c([2H])c1C([2H])([2H])[2H]	Mitogen-activated protein kinase kinase kinase 14 (MAP3K14, Homo sapiens, UniProt Q99558)	binding, competition with immobilised ligand		1 µM	remaining binding	95%
C[C@H]1O[C@H](O[C@H]2[C@H](O)[C@@H](O)[C@@H](O[C@H]3[C@H](O)[C@@H](O)C(O)O[C@@H]3CO)O[C@@H]2CO)[C@H](O)[C@@H](O)[C@@H]1N[C@H]1C=C(CO)[C@@H](O)[C@H](O)[C@H]1O (some centres unmarked)	Alpha-glucosidase MAL12 (MAL12, Saccharomyces cerevisiae S288c, UniProt P53341)	enzyme activity, inhibitor, absorbance		20 µg/mL	inhibition	21.4%
COc1cc(/C=C/C(=O)O)ccc1OCc1cn(CC(=O)Nc2cccc([N+](=O)[O-])c2)nn1	BCHE	enzyme activity, inhibitor, Ellman		40 µM	inhibition	20.5%
CC(C)OC(=O)[C@H](C)N[P@](=O)(CO[C@H](C)Cn1cnc2c(N)ncnc21)Oc1ccccc1	Cyclin-dependent kinase 1 (CDK1, Homo sapiens, UniProt P06493)	enzyme activity, inhibitor, ADP detection		10 µM	inhibition	66%
C#Cc1n[nH]c2c(-c3cn(C(C)c4ccccn4)c(=O)[nH]c3=O)cc(F)cc12 (centres unmarked)	Phosphatidylinositol 3-kinase catalytic subunit type 3 (PIK3C3, Homo sapiens, UniProt Q8NEB9)	enzyme activity, inhibitor		1 µM	inhibition	3.8%
Nc1ccncc1	Potassium voltage-gated channel subfamily A member 1 (KCNA1, Homo sapiens, UniProt Q09470)	ion current, inhibitor, patch clamp		30 µM	inhibition	86%
COc1cc(/C=C/C(=O)O)ccc1OCc1cn(CC(=O)Nc2ccccc2[N+](=O)[O-])nn1	BCHE	enzyme activity, inhibitor, Ellman		40 µM	inhibition	25.2%
COC(=O)c1cc(-c2cccc(NC(=S)Nc3ccc([N+](=O)[O-])cc3)c2)on1	Klebsiella pneumoniae	microbial growth, broth dilution	BAA1705		MIC	> 64 µg/mL
COc1cc(/C=C/C(=O)O)ccc1OCc1cn(CC(=O)Nc2cccc(C)c2)nn1	ACHE	enzyme activity, inhibitor, Ellman		40 µM	inhibition	16%
Oc1cc(NC[C@H]2CCC[C@@H]2NCc2cc(Br)cc(Br)c2)nc2ccccc12	Dihydroorotate dehydrogenase (quinone), mitochondrial (PFF0160c, Plasmodium falciparum, UniProt Q08210)	enzyme activity, inhibitor, absorbance			pIC50	5.55
Cc1c2oc3c(C)ccc(C(=O)N[C@@H]4C(=O)N[C@H](C(C)C)C(=O)N5CCC[C@H]5C(=O)N(C)CC(=O)N(C)[C@@H](C(C)C)C(=O)O[C@@H]4C)c3nc-2c(C(=O)N[C@@H]2C(=O)N[C@H](C(C)C)C(=O)N3CCC[C@H]3C(=O)N(C)CC(=O)N(C)[C@@H](C(C)C)C(=O)O[C@@H]2C)c(N)c1=O	Palmitoyl-protein thioesterase 1 (Homo sapiens, UniProt P50897)	enzyme activity, inhibitor		125 µM	inhibition	70.3%
Nc1ncc(-c2nc(N3CCOCC3)nc(N3CCOCC3)n2)c(C(F)F)n1	Epidermal growth factor receptor (EGFR, Homo sapiens, UniProt P00533, T790M)	cell-free assay, competition with immobilised ligand		10 µM	remaining binding	51%
CN1CCC[C@H]1c1cccnc1	D(4) dopamine receptor (DRD4, Homo sapiens, UniProt P21917)	ligand displacement		50 µM	inhibition	-5.26%
COc1ncccc1-c1cnn2ccc(N3CCN(C(=O)OC(C)C)CC3)nc12	Aurora kinase A (AURKA, Homo sapiens, UniProt O14965)	binding, competition with immobilised ligand		1 µM	remaining binding	70%

Structure (SMILES)	tested on	assay	test system	conditions	quantity	result
CCc1ccc(N2C(=O)/C(=C3/C(=O)N(C)c4ccc(Cl)cc43)NC2=S)cc1	ACHE	enzyme activity, inhibitor, Ellman		0.5 µM	inhibition	52%
CCCCOc1ccccc1C(=O)NCc1csc(-c2ccccc2)n1	Dihydroorotate dehydrogenase (quinone), mitochondrial (PFF0160c, Plasmodium falciparum, UniProt Q08210, E182D)	enzyme activity, inhibitor, absorbance			pIC50	6.24
COC(=O)c1cc(-c2cccc(NC(=O)Nc3cccc(F)c3)c2)on1	Klebsiella pneumoniae	microbial growth, broth dilution	BAA1705		MIC	> 64 µg/mL
COc1cc(/C=C/C(=O)O)ccc1OCc1cn(CC(=O)Nc2ccc([N+](=O)[O-])cc2C)nn1	BCHE	enzyme activity, inhibitor, Ellman		40 µM	inhibition	32.2%
Cc1nn(C)cc1-c1nc2c(N3CCN(Cc4ccc(Cl)cc4)CC3)c(Cl)cnc2[nH]1	Epidermal growth factor receptor (EGFR, Homo sapiens, UniProt P00533, del746-750)	binding, competition with immobilised ligand		1 µM	remaining binding	94%
COc1cc(/C=C/C(=O)O)ccc1OCc1cn(CC(=O)Nc2ccc(F)cc2)nn1	BCHE	enzyme activity, inhibitor, Ellman		40 µM	inhibition	39.4%
Cn1cc(-c2cc(F)cc(N3CCn4c(cc5c4CCCC5)C3=O)c2CO)cc(Nc2ccc(N3CCN(C4COC4)CC3)cn2)c1=O	Tyrosine-protein kinase ABL1 (ABL1, Homo sapiens, UniProt P00519, G250E)	enzyme activity, inhibitor		0.1 µM	inhibition	2%
O=C(Nc1cccnn1)N1CCN([C@@H]2CCOc3cc(C(F)(F)F)ccc32)CC1	Prostaglandin F2-alpha receptor (PTGFR, Homo sapiens, UniProt P43088)	cell-free assay		20 µM	inhibition	-4%
COc1cc(/C=C/C(=O)O)ccc1OCc1cn(CC(=O)Nc2ccc([N+](=O)[O-])cc2)nn1	BCHE	enzyme activity, inhibitor, Ellman		40 µM	inhibition	18.7%
CC(C)(C)OC(=O)N1CCN(C(=O)n2cc(-c3ccc(OC(F)(F)F)cc3)nn2)C(Cc2ccccc2)C1 (centres unmarked)	Diacylglycerol lipase-beta (Mus musculus, UniProt Q91WC9)	enzyme activity, inhibitor		10 nM	inhibition	55%
CC(C)C[C@H]1C(=O)N2CCC[C@H]2[C@]2(O)O[C@](NC(=O)[C@@H]3C=C4c5cccc6[nH]c(Br)c(c56)C[C@H]4[N+](C)(C)C3)(C(C)C)C(=O)N12	OPRD1	ligand displacement, radioligand		10 µM	inhibition	59.5%
CC(C)CC(=O)OC[C@H]1O[C@@](C#N)(c2ccc3c(N)ncnn23)[C@H](O)[C@@H]1O	OPRD1	cell-free assay		20 µM	inhibition	5%
COc1cc(/C=C/C(=O)O)ccc1OCc1cn(CC(=O)Nc2ccccc2)nn1	BCHE	enzyme activity, inhibitor, Ellman		40 µM	inhibition	24%
CN1C(=S)N(c2ccccc2)C(=O)/C1=C1/C(=O)N(C)c2ccc(Cl)cc21	ACHE	enzyme activity, inhibitor, Ellman		0.5 µM	inhibition	30%
COc1cc(/C=C/C(=O)O)ccc1OCc1cn(CC(=O)Nc2ccccc2Cl)nn1	BCHE	enzyme activity, inhibitor, Ellman		40 µM	inhibition	20%
CC[C@H](C)[C@H](NC(=O)[C@@H](NC(=O)[C@H](N)Cc1ccccc1)C(C)C)C(=O)N[C@@H](C)C(N)=O	Amyloid-beta precursor protein (APP, Homo sapiens, UniProt P05067)	amyloid aggregation, inhibitor, fluorescence		10 µM, 24 h	inhibition	100%

Repeated from above:
Structure (SMILES)	tested on	assay	test system	conditions	quantity	result
COc1cc(/C=C/C(=O)O)ccc1OCc1cn(CC(=O)Nc2cccc(C)c2)nn1	ACHE	enzyme activity, inhibitor, Ellman		40 µM	inhibition	16%
Oc1cc(NC[C@H]2CCC[C@@H]2NCc2cc(Br)cc(Br)c2)nc2ccccc12	Dihydroorotate dehydrogenase (quinone), mitochondrial (PFF0160c, Plasmodium falciparum, UniProt Q08210)	enzyme activity, inhibitor, absorbance			pIC50	5.55
Cc1c2oc3c(C)ccc(C(=O)N[C@@H]4C(=O)N[C@H](C(C)C)C(=O)N5CCC[C@H]5C(=O)N(C)CC(=O)N(C)[C@@H](C(C)C)C(=O)O[C@@H]4C)c3nc-2c(C(=O)N[C@@H]2C(=O)N[C@H](C(C)C)C(=O)N3CCC[C@H]3C(=O)N(C)CC(=O)N(C)[C@@H](C(C)C)C(=O)O[C@@H]2C)c(N)c1=O	Palmitoyl-protein thioesterase 1 (Homo sapiens, UniProt P50897)	enzyme activity, inhibitor		125 µM	inhibition	70.3%
Nc1ncc(-c2nc(N3CCOCC3)nc(N3CCOCC3)n2)c(C(F)F)n1	Epidermal growth factor receptor (EGFR, Homo sapiens, UniProt P00533, T790M)	cell-free assay, competition with immobilised ligand		10 µM	remaining binding	51%
CN1CCC[C@H]1c1cccnc1	D(4) dopamine receptor (DRD4, Homo sapiens, UniProt P21917)	ligand displacement		50 µM	inhibition	-5.26%
